Results of several laboratories.
Lines come from different studies, so protocols differ. Numbers after ± are the reported error.
PIK3CG: Phosphatidylinositol 4,5-bisphosphate 3-kinase catalytic subunit gamma isoform (PIK3CG, Homo sapiens, UniProt P48736)
UniProt P48736, sequence (whole entry, looked up): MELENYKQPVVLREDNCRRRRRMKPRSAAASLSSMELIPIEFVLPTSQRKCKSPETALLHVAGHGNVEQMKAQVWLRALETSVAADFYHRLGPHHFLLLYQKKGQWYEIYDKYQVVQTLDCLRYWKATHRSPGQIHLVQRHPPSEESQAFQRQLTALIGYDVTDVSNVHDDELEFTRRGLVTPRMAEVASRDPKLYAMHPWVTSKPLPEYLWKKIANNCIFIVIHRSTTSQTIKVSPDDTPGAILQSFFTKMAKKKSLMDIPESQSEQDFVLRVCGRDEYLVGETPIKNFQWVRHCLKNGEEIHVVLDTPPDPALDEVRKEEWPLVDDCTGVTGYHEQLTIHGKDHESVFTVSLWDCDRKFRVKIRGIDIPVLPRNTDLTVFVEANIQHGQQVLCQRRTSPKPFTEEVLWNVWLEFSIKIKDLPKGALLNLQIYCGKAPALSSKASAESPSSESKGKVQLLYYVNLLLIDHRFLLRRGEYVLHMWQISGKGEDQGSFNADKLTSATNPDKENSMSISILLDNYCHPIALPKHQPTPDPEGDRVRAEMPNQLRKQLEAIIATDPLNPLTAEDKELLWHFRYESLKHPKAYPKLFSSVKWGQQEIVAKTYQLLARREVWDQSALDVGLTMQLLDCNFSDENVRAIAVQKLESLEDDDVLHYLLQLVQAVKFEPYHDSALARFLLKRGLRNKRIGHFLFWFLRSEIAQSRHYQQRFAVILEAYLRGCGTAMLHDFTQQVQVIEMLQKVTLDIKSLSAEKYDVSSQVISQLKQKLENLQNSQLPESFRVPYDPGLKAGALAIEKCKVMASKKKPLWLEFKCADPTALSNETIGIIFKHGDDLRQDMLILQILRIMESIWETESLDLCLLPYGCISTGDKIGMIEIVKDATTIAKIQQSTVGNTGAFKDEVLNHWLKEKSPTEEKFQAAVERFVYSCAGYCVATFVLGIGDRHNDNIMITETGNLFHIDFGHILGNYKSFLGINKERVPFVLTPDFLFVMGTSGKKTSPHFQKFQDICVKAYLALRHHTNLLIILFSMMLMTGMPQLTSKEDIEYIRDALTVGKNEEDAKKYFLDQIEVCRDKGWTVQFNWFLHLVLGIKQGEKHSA
Chymotrypsinogen A: Chymotrypsinogen A (Bos taurus, UniProt P00766)
CHEK1: Serine/threonine-protein kinase Chk1 (CHEK1, Homo sapiens, UniProt O14757)
UniProt O14757, sequence (whole entry, looked up): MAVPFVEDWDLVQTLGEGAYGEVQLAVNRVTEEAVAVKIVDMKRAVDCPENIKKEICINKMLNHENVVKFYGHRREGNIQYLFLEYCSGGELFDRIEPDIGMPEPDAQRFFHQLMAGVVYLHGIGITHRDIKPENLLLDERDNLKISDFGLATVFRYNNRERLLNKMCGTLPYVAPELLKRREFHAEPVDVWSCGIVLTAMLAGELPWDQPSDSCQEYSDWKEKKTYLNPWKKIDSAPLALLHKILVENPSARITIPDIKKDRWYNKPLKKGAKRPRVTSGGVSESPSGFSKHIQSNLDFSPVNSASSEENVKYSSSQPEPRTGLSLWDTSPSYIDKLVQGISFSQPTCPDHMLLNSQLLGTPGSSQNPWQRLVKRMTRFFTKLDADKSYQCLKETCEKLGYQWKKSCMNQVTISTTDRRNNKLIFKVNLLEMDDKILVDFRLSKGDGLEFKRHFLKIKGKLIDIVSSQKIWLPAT
PPARA ligand-binding domain: Peroxisome proliferator-activated receptor alpha, ligand-binding domain (PPARA, Homo sapiens, UniProt Q07869)
UniProt Q07869, sequence (whole entry, looked up): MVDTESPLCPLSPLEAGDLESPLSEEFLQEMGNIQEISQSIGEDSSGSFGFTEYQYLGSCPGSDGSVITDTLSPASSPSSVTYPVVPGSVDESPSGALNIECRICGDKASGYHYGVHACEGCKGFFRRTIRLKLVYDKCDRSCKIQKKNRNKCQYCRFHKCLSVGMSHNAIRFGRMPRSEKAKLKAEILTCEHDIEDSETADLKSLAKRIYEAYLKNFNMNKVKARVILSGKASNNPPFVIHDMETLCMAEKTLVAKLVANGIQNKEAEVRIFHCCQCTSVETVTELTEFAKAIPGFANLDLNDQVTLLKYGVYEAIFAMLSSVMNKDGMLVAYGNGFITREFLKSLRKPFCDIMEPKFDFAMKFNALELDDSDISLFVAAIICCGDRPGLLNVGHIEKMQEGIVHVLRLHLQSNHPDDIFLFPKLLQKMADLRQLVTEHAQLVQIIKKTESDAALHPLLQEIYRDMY
Sensor histidine kinase AirS: Sensor histidine kinase AirS (Staphylococcus aureus, UniProt Q2FX96)
IAPP: Islet amyloid polypeptide (IAPP, Homo sapiens, UniProt P10997)
UniProt P10997, sequence (whole entry, looked up): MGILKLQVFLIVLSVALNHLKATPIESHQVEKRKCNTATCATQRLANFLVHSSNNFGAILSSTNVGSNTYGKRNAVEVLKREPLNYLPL
GBA2: Beta-glucosidase (GBA2, Homo sapiens, UniProt Q9HCG7)
UniProt Q9HCG7, sequence (whole entry, looked up): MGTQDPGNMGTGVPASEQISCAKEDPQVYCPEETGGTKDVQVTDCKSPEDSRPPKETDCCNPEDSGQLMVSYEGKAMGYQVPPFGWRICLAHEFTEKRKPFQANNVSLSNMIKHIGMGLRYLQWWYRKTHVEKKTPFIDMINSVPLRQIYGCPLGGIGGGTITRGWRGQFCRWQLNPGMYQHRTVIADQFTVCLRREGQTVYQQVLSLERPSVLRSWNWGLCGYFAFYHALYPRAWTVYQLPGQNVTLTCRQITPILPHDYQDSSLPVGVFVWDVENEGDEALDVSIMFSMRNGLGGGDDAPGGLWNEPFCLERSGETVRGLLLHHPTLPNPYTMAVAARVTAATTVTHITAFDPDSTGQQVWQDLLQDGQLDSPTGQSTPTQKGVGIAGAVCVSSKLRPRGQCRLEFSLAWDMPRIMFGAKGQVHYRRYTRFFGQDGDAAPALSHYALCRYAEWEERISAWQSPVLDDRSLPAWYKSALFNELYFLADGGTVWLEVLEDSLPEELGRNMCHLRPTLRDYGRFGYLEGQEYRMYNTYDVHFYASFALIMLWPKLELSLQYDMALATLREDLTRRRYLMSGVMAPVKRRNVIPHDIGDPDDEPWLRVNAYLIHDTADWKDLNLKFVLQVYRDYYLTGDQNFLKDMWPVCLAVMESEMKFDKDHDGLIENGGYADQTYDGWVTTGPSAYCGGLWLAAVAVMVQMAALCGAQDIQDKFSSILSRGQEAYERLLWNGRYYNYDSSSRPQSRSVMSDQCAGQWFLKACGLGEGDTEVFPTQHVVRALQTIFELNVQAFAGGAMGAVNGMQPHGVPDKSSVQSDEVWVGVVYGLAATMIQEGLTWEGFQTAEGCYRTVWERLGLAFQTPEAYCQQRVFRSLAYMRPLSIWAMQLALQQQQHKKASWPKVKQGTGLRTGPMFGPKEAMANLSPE
PIP4K2C: Phosphatidylinositol 5-phosphate 4-kinase type-2 gamma (PIP4K2C, Homo sapiens, UniProt Q8TBX8)
UniProt Q8TBX8, sequence (whole entry, looked up): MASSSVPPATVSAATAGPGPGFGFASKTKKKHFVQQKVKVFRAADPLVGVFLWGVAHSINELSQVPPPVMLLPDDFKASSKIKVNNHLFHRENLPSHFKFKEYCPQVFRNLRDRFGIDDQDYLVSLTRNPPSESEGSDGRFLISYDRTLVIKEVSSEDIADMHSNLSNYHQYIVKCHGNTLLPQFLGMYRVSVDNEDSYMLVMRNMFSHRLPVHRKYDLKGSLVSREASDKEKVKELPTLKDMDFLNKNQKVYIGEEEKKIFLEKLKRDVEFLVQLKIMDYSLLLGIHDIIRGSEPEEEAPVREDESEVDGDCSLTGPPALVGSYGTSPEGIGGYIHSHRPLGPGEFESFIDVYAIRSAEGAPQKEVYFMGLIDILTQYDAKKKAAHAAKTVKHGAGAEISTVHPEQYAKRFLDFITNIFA
HDAC2: Histone deacetylase 2 (HDAC2, Homo sapiens, UniProt Q92769)
UniProt Q92769, sequence (whole entry, looked up): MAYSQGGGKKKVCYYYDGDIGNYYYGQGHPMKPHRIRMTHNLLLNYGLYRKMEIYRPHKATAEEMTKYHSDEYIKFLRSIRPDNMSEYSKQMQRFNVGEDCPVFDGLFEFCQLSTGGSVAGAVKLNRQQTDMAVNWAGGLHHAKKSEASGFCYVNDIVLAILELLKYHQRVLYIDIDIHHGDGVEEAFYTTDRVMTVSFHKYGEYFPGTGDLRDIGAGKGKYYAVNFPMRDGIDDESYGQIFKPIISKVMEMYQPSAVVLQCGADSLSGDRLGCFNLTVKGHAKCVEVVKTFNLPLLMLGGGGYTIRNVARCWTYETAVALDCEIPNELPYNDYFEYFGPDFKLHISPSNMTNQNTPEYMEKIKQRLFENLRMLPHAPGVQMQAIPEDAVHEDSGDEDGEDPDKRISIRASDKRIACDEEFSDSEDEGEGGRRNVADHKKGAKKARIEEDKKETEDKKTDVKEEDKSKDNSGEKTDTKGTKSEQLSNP
UniProt P30874, sequence (whole entry, looked up): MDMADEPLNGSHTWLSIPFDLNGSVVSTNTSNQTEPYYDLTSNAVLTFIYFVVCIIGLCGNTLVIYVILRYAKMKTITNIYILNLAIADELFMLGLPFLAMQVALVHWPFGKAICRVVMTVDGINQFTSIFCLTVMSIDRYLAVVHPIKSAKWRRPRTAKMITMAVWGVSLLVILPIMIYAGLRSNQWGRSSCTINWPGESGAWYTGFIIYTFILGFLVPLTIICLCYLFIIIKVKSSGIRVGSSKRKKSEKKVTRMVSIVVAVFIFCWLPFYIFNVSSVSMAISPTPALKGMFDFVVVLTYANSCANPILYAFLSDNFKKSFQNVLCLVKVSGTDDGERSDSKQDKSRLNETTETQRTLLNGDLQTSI
UniProt P19525, sequence (whole entry, looked up): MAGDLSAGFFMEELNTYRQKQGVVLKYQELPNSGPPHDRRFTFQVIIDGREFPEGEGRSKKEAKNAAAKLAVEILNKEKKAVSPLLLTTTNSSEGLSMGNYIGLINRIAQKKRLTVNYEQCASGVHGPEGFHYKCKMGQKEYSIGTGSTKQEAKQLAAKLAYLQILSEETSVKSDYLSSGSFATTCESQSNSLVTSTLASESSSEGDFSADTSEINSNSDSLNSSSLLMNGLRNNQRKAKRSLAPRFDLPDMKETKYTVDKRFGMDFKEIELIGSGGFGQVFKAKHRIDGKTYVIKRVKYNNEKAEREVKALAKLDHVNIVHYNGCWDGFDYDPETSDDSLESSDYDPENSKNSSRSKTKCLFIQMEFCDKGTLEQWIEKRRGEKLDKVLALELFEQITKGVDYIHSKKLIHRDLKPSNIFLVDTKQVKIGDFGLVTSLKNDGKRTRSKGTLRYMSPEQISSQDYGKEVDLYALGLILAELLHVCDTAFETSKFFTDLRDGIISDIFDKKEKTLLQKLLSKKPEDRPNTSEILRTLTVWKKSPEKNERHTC

Cc1nc(Nc2ccc3c(c2)/C(=C/c2cn(C)c4ccccc24)C(=O)N3C)c2ccccc2n1 — IC50 (PIK3CG; enzyme activity, inhibitor, ADP detection): 0.212 µM
O=C1Nc2ccccc2C12NC(c1ccc(Cl)c(Cl)c1)C1(C(=O)Nc3ccccc31)N2Cc1ccc(Cl)c(Cl)c1 (stereo not shown) — IC50 (PIK3CG; enzyme activity, inhibitor, ADP detection): 0.0201 µM
O=C1CC(c2ccccc2)N1S(=O)(=O)c1cccc(Cl)c1 (stereo not shown) — IC50 (Chymotrypsinogen A; enzyme activity, inhibitor, fluorescence): 0.4 µM
Nc1ncc(-c2cc(-c3cnn(CC(F)(F)F)c3)ncc2F)nc1C(=O)NC1CNCC(F)C1 (stereo not shown) — IC50 (CHEK1; enzyme activity, inhibitor, radiometric): 0.14 µM
Cc1c(Cc2cccc(OCC(=O)O)c2)c2ccc(C(=O)N[C@@H](C)c3cccc(C(C)(C)C)c3)cc2n1C — IC50 (PPARA ligand-binding domain; reporter gene, luciferase reporter; HEK293T, Gal4-PPARα LBD): 41.1 µM
CN(C1=C(c2ccccc2)C(=O)NC1=O)c1ccc(F)cc1 — IC50 (Sensor histidine kinase AirS; autophosphorylation, inhibitor, BODIPY-FL-ATPγS in-gel fluorescence; lower bound of confidence interval): > 1250 µM
Cc1cccc([C@H](C)NC(=O)c2ccc3c(Cc4cccc(OC(C)(C)C(=O)O)c4)c(C)n(C)c3c2)c1 — IC50 (PPARA ligand-binding domain; reporter gene, luciferase reporter; HEK293T, Gal4-PPARα LBD): 158 µM
Cc1ccc(S(=O)(=O)N2CC(NC(=O)c3cccc(F)c3)C2=O)cc1 (stereo not shown) — IC50 (Chymotrypsinogen A; enzyme activity, inhibitor, fluorescence): 124 µM
Cc1cc(C)nc(SCC(=O)Nc2ncc(Cc3cccc(OCc4cn(Cc5ccc(C#N)cc5)nn4)c3)s2)n1 — IC50 (NAD-dependent protein deacetylase sirtuin-2 (SIRT2, Homo sapiens, UniProt Q8IXJ6); enzyme activity, inhibitor, fluorescence): 0.151 µM
C[C@@H](O)[C@@H]1NC(=O)[C@H](CCCCN)NC(=O)[C@@H](Cc2c[nH]c3ccccc23)NC(=O)[C@H](Cc2ccc(NC(N)=O)cc2)NC(=O)[C@H](NC(=O)[C@@H](N)Cc2ccc(Cl)cc2)CSSC[C@@H](C(=O)N[C@@H](Cc2ccc3ccccc3c2)C(N)=O)NC1=O — IC50 (Somatostatin receptor type 2 (SSTR2, Homo sapiens, UniProt P30874); ligand displacement, radioligand): < 0.01 µM
CN(C)c1ccc(/N=N/c2ccc(C(=O)OCCCCN)cc2)cc1 — IC50 (IAPP; ThT displacement, ThT fluorescence; pH 7.4, preformed target-ThT complex, together with: 5 µM ThT): 0.36 µM
OC[C@@H]1[C@@H](O)[C@H](O)[C@@H](O)CN1CCCCCOCC12CC3CC(C1)CC(COCCCCCN1C[C@H](O)[C@@H](O)[C@H](O)[C@H]1CO)(C3)C2 — IC50 (GBA2; inhibitor, 4MU-β-D-glucopyranoside; HEK293T homogenates overexpressing GBA2): 0.01 µM
CC(C)(O)CC#Cc1ccc2[nH]c3c(c2c1)-c1nc(N)ncc1CCC3 — IC50 (PIP4K2C; target engagement in cells, BRET): 0.038 µM
N#Cc1cc(C(=O)c2cc(Br)ccc2O)cn(-c2ccccc2Cl)c1=O — IC50 (Adenylate cyclase type 10 (Homo sapiens, UniProt Q96PN6); enzyme activity, inhibitor, enzyme immunoassay): 4.4 µM
OC[C@@H]1[C@@H](O)[C@H](O)[C@@H](O)CN1CCCCCOCC(COCCCCCN1C[C@H](O)[C@@H](O)[C@H](O)[C@H]1CO)C12CC3CC(CC(C3)C1)C2 — IC50 (GBA2; inhibitor, 4MU-β-D-glucopyranoside; HEK293T homogenates overexpressing GBA2): 0.008 µM
Cc1c(Cc2cccc(OC(C)(C)C(=O)O)c2)c2ccc(C(=O)N[C@@H](C)c3ccc(C4CC4)cc3)cc2n1C — IC50 (PPARA ligand-binding domain; reporter gene, luciferase reporter; HEK293T, Gal4-PPARα LBD): 19 µM
O=C1/C(=N\c2ccc(Cl)cc2Br)c2ccccc2N1C(=O)c1ccccc1 — IC50 (PIK3CG; enzyme activity, inhibitor, ADP detection): 0.0996 µM
CN(C)c1ccc(/N=N/c2ccc(NC(=O)CN)cc2)cc1 — IC50 (IAPP; ThT displacement, ThT fluorescence; pH 7.4, preformed target-ThT complex, together with: 5 µM ThT): 0.46 µM
OB(O)c1sccc1/C=N/OCc1ccccc1 — IC50 (Urokinase-type plasminogen activator (PLAU, Homo sapiens, UniProt P00749); enzyme activity, inhibitor): > 100 µM
Cc1nn(-c2cccc(N)c2)c(=O)c2cnc(Nc3ccc(N4CCNCC4)cc3)nc12 — IC50 (Serine/threonine-protein kinase PAK 5 (PAK5, Homo sapiens, UniProt Q9P286); enzyme activity, inhibitor): > 10 µM
Cc1c(Cc2ccc(OC(C)(C)C(=O)O)cc2)c2ccc(C(=O)N[C@@H](C)c3cccc(C(F)(F)F)c3)cc2n1C — IC50 (PPARA ligand-binding domain; reporter gene, luciferase reporter; HEK293T, Gal4-PPARα LBD): 4.11 µM
Cc1nc2ccccc2c(=O)n1N — IC50 (Pancreatic alpha-amylase (Homo sapiens, UniProt P04746); enzyme activity, inhibitor): 1093 ± 4.95 µM
N#Cc1ccccc1-c1ccc(COCCCCCN2C[C@H](O)[C@@H](O)[C@H](O)[C@H]2CO)cc1 — IC50 (GBA2; inhibitor, 4MU-β-D-glucopyranoside; HEK293T homogenates overexpressing GBA2): 0.005 µM
Cc1cnc(Nc2ccc3c(c2)CCN(C(=O)/C=C/C(=O)C2CCC(C)CC2)C3)nc1-c1cnn(C(C)C)c1 (stereo not shown) — IC50 (Tyrosine-protein kinase JAK2 (JAK2, Homo sapiens, UniProt O60674); enzyme activity, inhibitor, ADP detection): 0.00205 µM
CC1C(=O)N(S(=O)(=O)c2ccccc2)C1c1ccccc1 (stereo not shown) — IC50 (Chymotrypsinogen A; enzyme activity, inhibitor, fluorescence): 0.7 µM
OC[C@H]1[C@@H](O)[C@H](O)[C@@H](O)CN1CCCCCOCCC12CC3CC(CC(C3)C1)C2 — IC50 (GBA2; inhibitor, 4MU-β-D-glucopyranoside; HEK293T homogenates overexpressing GBA2): 0.006 µM
O=C(NCc1ccccc1Cl)C(C(F)(F)F)C(F)(F)F — IC50 (Chymotrypsinogen A; enzyme activity, inhibitor, fluorescence): 14 µM
Cc1cc(NC(=O)[C@H](O)c2cc(F)cc(F)c2)ccc1-c1cnc(N)c(C(=O)NC(C)C)c1 — IC50 (Interferon-induced, double-stranded RNA-activated protein kinase (EIF2AK2, Homo sapiens, UniProt P19525); inhibitor, FRET kinase; together with: ATP 6 µM): > 10 µM
O=C1Nc2ccccc2Nc2cc(Nc3ccc(Cl)cc3)ccc21 — IC50 (CHEK1; enzyme activity, inhibitor): > 10 µM
CC(C)Cn1cc(Cc2cccc(OC(C)(C)C(=O)O)c2)c2ccc(C(=O)N[C@@H](C)c3cccc(C(C)(C)C)c3)cc21 — IC50 (PPARA ligand-binding domain; reporter gene, luciferase reporter; HEK293T, Gal4-PPARα LBD): 0.24 µM
OC[C@H]1c2[nH]cnc2[C@H](O)[C@@H](O)[C@@H]1O — IC50 (GBA2; HEK293 lysate overexpressing enzyme; pH 5.8, together with: 4-MU-β-D-glucopyranoside): > 50 µM
Cc1ccc(NC(=O)C(C(F)(F)F)C(F)(F)F)cc1 — IC50 (Chymotrypsinogen A; enzyme activity, inhibitor, fluorescence): 39 µM
Cc1c(COc2cc(OCc3cccc(C#N)c3)c(CNC(C)(CO)CO)cc2Cl)cccc1-c1cccc(OCCCCCCC(=O)NO)c1 — IC50 (HDAC2; enzyme activity, inhibitor): 0.0532 µM
OC[C@H]1[C@@H](O)[C@H](O)[C@@H](O)CN1CCCCCOCc1ccc(-c2ccccc2)c(F)c1 — IC50 (GBA2; inhibitor, 4MU-β-D-glucopyranoside; HEK293T homogenates overexpressing GBA2): 0.0006 µM
Cc1c(Cc2cccc(OC(C)(C)C(=O)O)c2)c2ccc(C(=O)N[C@@H](C)c3cccc(C(F)(F)F)c3)cc2n1C — IC50 (PPARA ligand-binding domain; reporter gene, luciferase reporter; HEK293T, Gal4-PPARα LBD): 0.87 µM
O=C(NCc1ccccc1)C(C(F)(F)F)C(F)(F)F — IC50 (Chymotrypsinogen A; enzyme activity, inhibitor, fluorescence): 63 µM
Cc1c(Cc2cccc(OC(C)(C)C(=O)O)c2)c2ccc(C(=O)N[C@@H](C)c3ccc(C(F)(F)F)cc3)cc2n1C — IC50 (PPARA ligand-binding domain; reporter gene, luciferase reporter; HEK293T, Gal4-PPARα LBD): 18.8 µM
N#Cc1cnc(NC(=O)Nc2cc(Cl)ccc2C#N)cn1 — IC50 (CHEK1; enzyme activity, inhibitor): > 10 µM
O=C(Nc1cccc(N2CCNCC2)c1)c1cc(-c2ccccc2)n(-c2ccccc2)n1 — IC50 (Genome polyprotein, NS2B-NS3 protease (ZIKV, UniProt A0A024B7W1); protease activity, inhibitor; Zika virus; isolated protease): 8.3 µM
CN(C1=C(c2ccc(F)cc2)C(=O)NC1=O)c1ccccc1 — IC50 (Sensor histidine kinase AirS; autophosphorylation, inhibitor, BODIPY-FL-ATPγS in-gel fluorescence; lower bound of confidence interval): > 1250 µM
O=C(NCC1CCOCC1)c1ccccc1NC(=O)C(C(F)(F)F)C(F)(F)F — IC50 (Chymotrypsinogen A; enzyme activity, inhibitor, fluorescence): 402 µM
Cc1ccccc1-c1ccc(COCCCCCN2C[C@H](O)[C@@H](O)[C@H](O)[C@H]2CO)cc1 — IC50 (GBA2; inhibitor, 4MU-β-D-glucopyranoside; HEK293T homogenates overexpressing GBA2): 0.001 µM
O=S(=O)(O)c1cc(O)c2ccc(Nc3ccc4c(O)cc(S(=O)(=O)O)cc4c3)cc2c1 — IC50 (Three-prime repair exonuclease 1 (TREX1, Homo sapiens, UniProt Q9NSU2); enzyme activity, inhibitor): 1.93 µM
CCN(CC)CC(=O)Nc1cccc(-n2cc(-c3ccc4ccc(-c5cn(-c6cccc(NC(=O)CN(CC)CC)c6)nn5)cc4c3)nn2)c1 — IC50 (Proto-oncogene tyrosine-protein kinase receptor Ret (RET, Homo sapiens, UniProt P07949); enzyme activity, inhibitor): > 10 µM
O=C(Nc1ccccc1OCC(=O)N1CCOCC1)C(C(F)(F)F)C(F)(F)F — IC50 (Chymotrypsinogen A; enzyme activity, inhibitor, fluorescence): 63 µM
CCCCCCOCCCCCN1C[C@H](O)[C@@H](O)[C@H](O)[C@@H]1CO — IC50 (GBA2; inhibitor, 4MU-β-D-glucopyranoside; HEK293T homogenates overexpressing GBA2): 0.025 µM
Nc1ncc2c(n1)-c1c([nH]c3ccc(C4=CCOCC4)cc13)CCC2 — IC50 (PIP4K2C; target engagement in cells, BRET): 0.067 µM
OC[C@@H]1[C@@H](O)[C@H](O)[C@@H](O)CN1CCCCOCCC12CC3CC(CC(C3)C1)C2 — IC50 (GBA2; inhibitor, 4MU-β-D-glucopyranoside; HEK293T homogenates overexpressing GBA2): 0.00415 µM
CC[C@H](C)[C@@H]1NC(=O)[C@H](Cc2ccccc2C(F)(F)F)NC(=O)CCSCc2cccc(n2)CSCCCNC(=O)[C@H](CCCCCC(=O)NO)NC1=O — IC50 (HDAC2; enzyme activity, inhibitor, fluorescence): 0.016 µM
